{"data": "Assay results collected from several papers", "note": "Parts stem from different laboratories: compare values within a part only."}
{"data": "Sample 1", "target": "RNA binding protein fox-1 homolog 2, RRM domain, GST-SBP tag (RBFOX2, Homo sapiens, UniProt O43251-10, residues 100-194)", "technique": "RNA Bind-n-Seq", "form": "RNA", "medium": "in vitro", "concentration": "365 nM", "notes": "natural RNA segment, single round, ends assumed", "relative to": "no-protein control", "direction": "higher = stronger binding", "all sequences stand within": "GGGAGUUCUACAGUCCGACGAUC … UGGAAUUCUCGGGUGCCAA", "Target sequence (chain)": "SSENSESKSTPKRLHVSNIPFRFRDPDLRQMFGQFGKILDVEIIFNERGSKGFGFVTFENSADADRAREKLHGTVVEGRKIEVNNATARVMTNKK"}
{"Oligonucleotide": "GCUCGGACAGCACCCUCAGUGCCAGCCAGCCUCUGCCAGACCUCUCUUUCCCUCUUCUCCCCAGCCUCCUCCAGGGCUGCCCAAGGCAGGGUUUCCAGCCAGGCCUCGGG", "RBNS enrichment (R)": 0.308}
{"Oligonucleotide": "GGCAAGAUAGGAAGCUCUGCCUGAGCUUUCCACUAGGCACGCCAGCCAGACCAAUAAAAAGCGUCUGUCCCACUCUGCUAAGCCUGGUUUUCUUGAGCAGAGGGAUGGAA", "RBNS enrichment (R)": 0.326}
{"Oligonucleotide": "UGAAGGGAUAGGACAAAAGAGACAAUCAAAUAUGGAGCUUAGCAUAGCUAGAAUGGCAUGAUGUCACUGUUCUUUUCCUGUGGCUUUUUAUUGUUGUUUCUCAUCAUUCU", "RBNS enrichment (R)": 0.964}
{"Oligonucleotide": "AAUCUAAAGCAAGAAUAUAAAAUAAUUUUAAGAAGCAUAUAAUUUCUUUUGAUAAAAAGUAACAAAAAUUUAAUGCAGAUCAAAGACCAAGGCUUGUAACCAAAACAAGC", "RBNS enrichment (R)": 0.795}
{"Oligonucleotide": "GUAGUAGAGUUUAAUUCACCAUAUGAACCUCAUUCUGAUGUUUUUGAUUUGAUAGUCUUGAUCUAAAAAUAAUGUUUUGUUAAUAUGUCACUAAAUUUCUAAAAACUGUA", "RBNS enrichment (R)": 0.926}
{"Oligonucleotide": "UCACACGGCUGAGAGUCCCCUUUCCAGGCAGGGCCAGCAUGUGUAGAAUAUCUUUCAGAAUAUGGUUUCACCAUGAAACAGGGGUGGUAGAUUUAUUCCCUUGUGUCAGG", "RBNS enrichment (R)": 4.58}
{"Oligonucleotide": "UAGUUCGAAGGAUGCCGCCGUGCUGUCUGUGGCCGCCCUCCCAUGUCCUGUCCCCUGUAGCUGCUUUCUUAGAUGGAAACAGGCUAACGAAGAGAGGGACACUGUCGUGU", "RBNS enrichment (R)": 0.211}
{"Oligonucleotide": "UUUCUGCACUGCAACUGUGUGAUUGAAAAAUGAGAUGUUCAUCCAAGCAGUCAAGCCACAGAAACCCAGCAUGUCCCUGUCACAAUCUCAUGGGCACCUUGAUCAUGUCU", "RBNS enrichment (R)": 4.82}
{"data": "Sample 2", "target": "Phosphate system positive regulatory protein PHO4, full length, GST-tagged (PHO4, Saccharomyces cerevisiae, UniProt P07270, residues 1-312)", "technique": "competition protein-binding microarray", "form": "double-stranded DNA, one strand shown", "medium": "in vitro", "concentration": "2 µM", "notes": "whole 60-bp probe, lowest competitor level", "together with": "Cbf1 competitor, 0.05 µM", "direction": "higher = stronger binding", "all sequences stand within": "… GTCTTGATTCGCTTGACGCTGCTG", "Residues (chain)": "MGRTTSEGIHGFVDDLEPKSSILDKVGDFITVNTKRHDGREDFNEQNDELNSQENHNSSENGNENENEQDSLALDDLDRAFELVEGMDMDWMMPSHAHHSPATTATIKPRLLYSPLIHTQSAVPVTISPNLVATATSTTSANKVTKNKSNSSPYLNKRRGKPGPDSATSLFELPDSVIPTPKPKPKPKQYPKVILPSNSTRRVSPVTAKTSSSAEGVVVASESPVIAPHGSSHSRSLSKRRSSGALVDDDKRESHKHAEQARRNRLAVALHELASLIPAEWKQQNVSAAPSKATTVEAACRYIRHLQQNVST"}
{"Oligonucleotide": "TTCTTTGCCCTCTTGCTCGTGTGGATTCCTTTCCGC", "fluorescence intensity [a.u.]": 6490}
{"Oligonucleotide": "TTTGCCTCGGCCTGCCGCGTGGTGATGGTAGTTTGA", "fluorescence intensity [a.u.]": 8430}
{"Oligonucleotide": "CGTCCTAGTGATTGTACCGTGGGTGCCATGAGGAAG", "fluorescence intensity [a.u.]": 7620}
{"Oligonucleotide": "CACCATTTGATGTTGCACATGCGTTCGATATACCCC", "fluorescence intensity [a.u.]": 11000}
{"Oligonucleotide": "TATATTAGGTCGAGTCACGGGTGGTGTCCCTCAAGC", "fluorescence intensity [a.u.]": 5870}
{"Oligonucleotide": "GATCCCAGGGAGCGCCTCGTGCCCCAGTGACACACT", "fluorescence intensity [a.u.]": 12200}
{"Oligonucleotide": "GTCTTGTCTCATTGGGTGGTGGGTGTCCCCACTTCA", "fluorescence intensity [a.u.]": 4840}
{"Oligonucleotide": "CTTTCCCGATCTTGTGAGGTGGGTGTAGCACATTTG", "fluorescence intensity [a.u.]": 4960}
{"Oligonucleotide": "CGGGGTTAAGTTTTTCACGTGAGTTGCTTGCAGCAG", "fluorescence intensity [a.u.]": 10300}
{"Oligonucleotide": "GAAGAACCTTTACTACATGTGCTGCCAACCAAACCA", "fluorescence intensity [a.u.]": 8880}
{"Oligonucleotide": "CGTCCTAGTGATTGTCACGCAACTTCCATGAGGAAG", "fluorescence intensity [a.u.]": 5560}
{"Oligonucleotide": "GAAAGAGCGAAAATACTCGTGATGGAAACTCTTTTA", "fluorescence intensity [a.u.]": 6550}
{"Oligonucleotide": "TTGCGTTTACGCTCGCGCGTGGGACAACTAACGCAA", "fluorescence intensity [a.u.]": 9010}
{"Oligonucleotide": "CGACACAAAAAAGAACCCGTGCAAATATTATATCCC", "fluorescence intensity [a.u.]": 10200}
{"Oligonucleotide": "GGGCCCGCAGTTTTGCACATGCGCGTTACTGGATCG", "fluorescence intensity [a.u.]": 9070}
{"Oligonucleotide": "GCCTCTGTACAATGCCACGTTGATACGCCCAGCAGC", "fluorescence intensity [a.u.]": 11100}
{"Oligonucleotide": "GTAGCTTCGCGGCAATGCCTGATCCGACAGCCGCAA", "fluorescence intensity [a.u.]": 2580}
{"Oligonucleotide": "CTTCTGTAAATTTGCGATGTGGGTGGACGCGCCCCG", "fluorescence intensity [a.u.]": 4110}
{"Oligonucleotide": "GGCATATTCTCTTGTAGTGTGACGGAAGGTGCGGGT", "fluorescence intensity [a.u.]": 4920}
{"data": "Sample 3", "target": "Histone acetyltransferase KAT6A, both winged helices, GST fusion (KAT6A, Homo sapiens, UniProt Q92794, residues 1-181)", "technique": "protein binding microarray", "form": "double-stranded DNA, one strand shown", "medium": "in vitro", "concentration": "not given", "notes": "8-mer, flanks averaged, mean of 2 arrays, mostly near background", "relative to": "not given", "direction": "higher = stronger binding", "Target sequence (chain)": "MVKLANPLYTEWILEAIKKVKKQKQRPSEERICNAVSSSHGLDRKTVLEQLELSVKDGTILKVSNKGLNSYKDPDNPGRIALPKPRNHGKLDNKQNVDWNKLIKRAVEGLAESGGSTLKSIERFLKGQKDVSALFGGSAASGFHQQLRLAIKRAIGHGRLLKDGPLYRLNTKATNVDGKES"}
{"Oligonucleotide": "CATCGAGC", "E-score": 0.0809}
{"Oligonucleotide": "AATGTTGG", "E-score": -0.0653}
{"Oligonucleotide": "ATTATCGC", "E-score": 0.00421}
{"Oligonucleotide": "CACTTACG", "E-score": 0.0651}
{"Oligonucleotide": "ATACTGTC", "E-score": -0.116}
{"Oligonucleotide": "GTTCCTAA", "E-score": -0.0716}
{"Oligonucleotide": "TCATATAA", "E-score": -0.0231}
{"Oligonucleotide": "CCTTGTTC", "E-score": -0.0907}
{"Oligonucleotide": "AGGGACAC", "E-score": -0.115}
{"Oligonucleotide": "ATACCTTA", "E-score": -0.22}
{"Oligonucleotide": "GGGCACGA", "E-score": -0.0502}
{"Oligonucleotide": "ATCGCTCC", "E-score": 0.187}
{"Oligonucleotide": "ACGTGCTC", "E-score": -0.0441}
{"Oligonucleotide": "CCCCATAA", "E-score": -0.219}
{"Oligonucleotide": "CCAACAAA", "E-score": -0.193}
{"Oligonucleotide": "GATGGTCC", "E-score": 0.0181}
{"Oligonucleotide": "AACCGGCG", "E-score": 0.29}
{"data": "Sample 4", "target": "Interferon regulatory factor 5, full length, phosphomimetic (IRF5, Homo sapiens, UniProt Q13568-2, residues 1-514, S451D/S453D/S456D/S462D)", "technique": "protein-binding microarray", "form": "double-stranded DNA, one strand shown", "medium": "in vitro", "concentration": "940 nM top", "notes": "60-bp whole probe", "together with": "salmon DNA 0.4 mg/ml", "relative to": "random background probes", "direction": "higher = stronger binding", "all sequences stand within": "GCCTAGCAC … GTCTTGATTCGCTTGACGCTGCTG"}
{"Oligonucleotide": "TTAGGTTCCGGTTTCGGTAAGTGCTAG", "fitted relative affinity": "8.92 z-score"}
{"Oligonucleotide": "GACGATTTCGGGACGGGAGACGTGCTA", "fitted relative affinity": "0.308 z-score"}
{"Oligonucleotide": "GACGATATCAGACTGGAGAAGTGCTAG", "fitted relative affinity": "-0.454 z-score"}
{"Oligonucleotide": "GACGAACTGGGGACCGGAGACGTGCTA", "fitted relative affinity": "-0.234 z-score"}
{"Oligonucleotide": "GACGGTTTCGGACTGGGGACGTGCTAG", "fitted relative affinity": "5.88 z-score"}
{"Oligonucleotide": "TTAGATATAAGTTTCGATTAGTGCTAG", "fitted relative affinity": "6.9 z-score"}
{"Oligonucleotide": "GACGGTATCGGGACTGGGGACGTGCTA", "fitted relative affinity": "3.14 z-score"}
{"Oligonucleotide": "TTAGGTTACGGTATCGGTTAGTGCTAG", "fitted relative affinity": "4.41 z-score"}
{"Oligonucleotide": "TTAGATCTCAGACTGGAATAGTGCTAG", "fitted relative affinity": "-0.193 z-score"}
{"Oligonucleotide": "TTAGATCTCAGTTTCGACTAGTGCTAG", "fitted relative affinity": "4.76 z-score"}
{"Oligonucleotide": "GACGGTTTCGGTTTGGGGACGTGCTAG", "fitted relative affinity": "13.5 z-score"}
{"Oligonucleotide": "TTAGGTCTGCTTATCCTTTAGTGCTAG", "fitted relative affinity": "-0.275 z-score"}
{"Oligonucleotide": "GACGATTTCAGTTCTGAGACGTGCTAG", "fitted relative affinity": "0.407 z-score"}
{"Oligonucleotide": "TTAGGTCTCGGTCTCGGTCAGTGCTAG", "fitted relative affinity": "5.02 z-score"}
{"Oligonucleotide": "GACGATATCAGTTGCGAGACGTGCTAG", "fitted relative affinity": "0.25 z-score"}
{"Oligonucleotide": "ATAACACTCTTCTTTTGCTAAGTGCTA", "fitted relative affinity": "0.968 z-score"}
{"Oligonucleotide": "TTAGGTCTCCTACTGCTTTCGTGCTAG", "fitted relative affinity": "0.0553 z-score"}
{"Oligonucleotide": "AACAGGAGCAGATGGGAAGTGTGCTAG", "fitted relative affinity": "-0.0847 z-score"}
{"Oligonucleotide": "TCATGTCTGATTATTTAACTGTGCTAG", "fitted relative affinity": "0.211 z-score"}
{"note": "Some of these lines once more (sample 1):"}
{"Oligonucleotide": "AAUCUAAAGCAAGAAUAUAAAAUAAUUUUAAGAAGCAUAUAAUUUCUUUUGAUAAAAAGUAACAAAAAUUUAAUGCAGAUCAAAGACCAAGGCUUGUAACCAAAACAAGC", "RBNS enrichment (R)": 0.795}
{"Oligonucleotide": "UGAAGGGAUAGGACAAAAGAGACAAUCAAAUAUGGAGCUUAGCAUAGCUAGAAUGGCAUGAUGUCACUGUUCUUUUCCUGUGGCUUUUUAUUGUUGUUUCUCAUCAUUCU", "RBNS enrichment (R)": 0.964}
{"Oligonucleotide": "GCUCGGACAGCACCCUCAGUGCCAGCCAGCCUCUGCCAGACCUCUCUUUCCCUCUUCUCCCCAGCCUCCUCCAGGGCUGCCCAAGGCAGGGUUUCCAGCCAGGCCUCGGG", "RBNS enrichment (R)": 0.308}
{"Oligonucleotide": "UAGUUCGAAGGAUGCCGCCGUGCUGUCUGUGGCCGCCCUCCCAUGUCCUGUCCCCUGUAGCUGCUUUCUUAGAUGGAAACAGGCUAACGAAGAGAGGGACACUGUCGUGU", "RBNS enrichment (R)": 0.211}
{"Oligonucleotide": "GGCAAGAUAGGAAGCUCUGCCUGAGCUUUCCACUAGGCACGCCAGCCAGACCAAUAAAAAGCGUCUGUCCCACUCUGCUAAGCCUGGUUUUCUUGAGCAGAGGGAUGGAA", "RBNS enrichment (R)": 0.326}
{"Oligonucleotide": "UUUCUGCACUGCAACUGUGUGAUUGAAAAAUGAGAUGUUCAUCCAAGCAGUCAAGCCACAGAAACCCAGCAUGUCCCUGUCACAAUCUCAUGGGCACCUUGAUCAUGUCU", "RBNS enrichment (R)": 4.82}
